Experimental data gathered from unrelated publications.
A part holds a random share of what one study measured.

Block 1
Target: RING finger protein unkempt homolog, zinc fingers 1-6, SBP tag (UNK, Homo sapiens, UniProt Q9C0B0, residues 30-357)
Chain of UniProt Q9C0B0 (30-357, looked up): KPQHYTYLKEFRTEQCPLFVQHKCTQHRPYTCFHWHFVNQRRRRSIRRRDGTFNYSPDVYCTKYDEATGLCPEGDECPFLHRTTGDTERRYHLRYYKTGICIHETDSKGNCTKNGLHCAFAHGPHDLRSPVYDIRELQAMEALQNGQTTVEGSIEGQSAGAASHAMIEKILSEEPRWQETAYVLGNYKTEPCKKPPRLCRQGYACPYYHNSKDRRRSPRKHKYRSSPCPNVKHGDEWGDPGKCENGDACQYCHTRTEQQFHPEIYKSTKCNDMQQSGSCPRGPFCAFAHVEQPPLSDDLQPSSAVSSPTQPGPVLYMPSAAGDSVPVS
Method: RNA Bind-n-Seq
Molecule type: RNA
Matrix: in vitro
Tested at: 100 nM
Setting: RNA with constant flanks, vertebrate orthologous sites, ends assumed
Relative to: input RNA pool
Direction: higher = stronger binding
All sequences stand within: GGGAGUUCUACAGUCCGACGAUC … CAACAGAGGAUUGAGCAUCA
| Oligonucleotide | bound/input enrichment |
| --- | --- |
| AGGAAAUGCUCGCUGCAAACCCUCAGGAUCGUCCAGAUGCUUUUGAACUAGAACUCAGAUUAGUACAAAUUGCAUUUAAAGAUAGCAGCUGGGAAACGUGACAUAUAUAUUGUUUGCAAA | 0.818 ratio |
| UUUAAAGUCAUUUUUCCACAUUUCCUGUAAAUAAUGGUUAAUCGUUUUUUAUUUUAUUUUUAAGUGCUGUUUAACAAUGUGGCUAGACCAUAAAUGUACUUGCUGAAUUCAUUCAUUUUU | 0.39 ratio |
| GUGACUUUGGACGCCCGCAGAGUCUUGGUGCAGAGACUGCUGAGUCCUGGGCCUUGUGAGUUAAGUCUCCGUUCUUUCCGUACGCGAGGCCUCUGUUGCAACUAUGCUUCGCCAGAUCGU | 0.305 ratio |
| GUCGCCGGAAUGACGUCGACCCUAACGUUGCAGUGGAAAGGAUGUCCCAGUAUGUGUUGGUAGUUACUGAAGGACGUAUAGCUGGUGUUGCCUUGUAUUUUAGCCGUUGUUUCAGGUUUC | 0.624 ratio |
| CGGCCGACUCGCUCAUCGGGAGGGCGGCACACAUCGCUGUGCUCGACUCGGAAAUAUUCCUAGAGAAGUUCUUCCUGGUUGCUGCCCUCAAGUAUUUCCAGUAGAAUAAGAGCAUUGCUA | 0.216 ratio |
| UCUAUACAGUUUCAAAGAUACUUCCUUAUAGAGUGCUUUGGCGCUUCACAUAUUUAAUCGUAUUUACAUAUCUAUUUUUUAUAAAUAGCAGUAUAAGUUUAAAGGGGACUCACUUGGUGU | 0.684 ratio |
| GUGUUUUGGUACCACUUGACGUACCGAUACUCAUCCUUUUUUCAUUAUACCAACUCUCGCUAGAAGUAGGAAUUUAAUAUUUUUAAAAAUUUUACAUUGCUGUAUAUUCAAAAUUUUACA | 1.46 ratio |
| AGAAAAUUUUAACCAAGAAUCCGAAGGUAGAAAUACAGGACCAUGGUUAUCUUCUUCAUUUAGAAAUAGGUGUACACCUCUGUUUUCUAGAAGGAGGCGAGAGGGAAGAGAUGAAUCUUC | 0.462 ratio |
| GUUGUGACCCAUUUAACAUCCAUAAAAAGCUAGCCAAAAAGAAUCUGCAUGUCAUUGACUUGGAUGAUGCCACUUUUCUGAGUGCAAAAUUUGGAAGGCAGCUGGUGCCUGGUUGGAAGC | 0.49 ratio |
| GUGUUGGUGCAGAGUGUCCUGUACCAGUGCUCAUCAUCCCUUCUUCAUACCAACUGUCCCUAGUUAUAGGAAUUUAAUAUUUUUAAAAAUUUUACAUUGCUGUAUAUUCAAAGAUUUGUU | 0.905 ratio |
| GCUCCGGCCCGGGGCAGGGCUGUGGAGCACACUUUGCGCGCUCCUGCAGUUUUCUUUGUUCUAGGGGUGGGGGUUGUGGCGCACACCGACGUGGAGGCGUAGCUUUAGUGGUUCAUUAUG | 0.833 ratio |

Block 2
Cell line: yeast with cyclin D2-Cln2 chimera
Observed: cell growth
Action: binder
Method: competitive growth deep sequencing
Molecule type: peptide
Tested at: concentration not given
Setting: peptide tiling library
Direction: direction not given
| Molecule | growth enrichment score |
| --- | --- |
| ASVLSKPIFCFVKD | -0.656 |
| SNFFDVIKQLFSDEKN | -2.45 |
| PKRAKRKLYTSEISSP | -0.198 |
| HPESPPRKRLKSKGSD | 0.43 |
| IFNKPECGRVQRAIFQ | -0.545 |
| DWDTVERQEEEAPSWD | -0.154 |
| GTPKRCLDLSNLSSGE | -1.18 |
| TSSAQRRLEIPSGGAD | -0.766 |

Block 3
Target: POU domain, class 5, transcription factor 1, POU domain (Pou5f1, Mus musculus, UniProt P20263, residues 131-289)
Chain of UniProt P20263 (131-289, looked up): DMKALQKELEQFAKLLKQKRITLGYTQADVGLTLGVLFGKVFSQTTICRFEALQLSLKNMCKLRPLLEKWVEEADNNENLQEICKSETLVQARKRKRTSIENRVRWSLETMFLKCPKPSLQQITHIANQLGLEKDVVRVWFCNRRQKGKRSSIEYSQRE
Method: Spec-seq
Molecule type: double-stranded DNA, one strand shown
Matrix: in vitro
Tested at: not given
Setting: whole probe, mean of replicates
Relative to: not given
Direction: lower = stronger binding
All sequences stand within: GAGTCGTCTCGTCAGCAC … CCGTAGAGCACTCAGGTC
| Oligonucleotide | relative binding energy [ln ratio] |
| --- | --- |
| ATAGTTAT | 0.103 |
| ATTGGAAT | -0.357 |
| CACCTAAT | 0.825 |
| ATGCCACA | 0.592 |
| GCTCTAAT | 0.751 |
| GCTATAAT | 0.691 |
| AAACTAAT | 0.335 |
| CCCCTAAT | 0.796 |
| ATGCAATC | -0.298 |
| ATTAGCAT | -2.99 |
| AATGTAAT | 0.0172 |
| ATGCACCG | 0.227 |
| ATTCAAAT | -0.793 |
| TGAATAAT | -1.76 |
| AATTTAAT | -0.253 |

Block 4
Target: Fragile X messenger ribonucleoprotein 1, C-terminal low-complexity region (Fmr1, Mus musculus, UniProt P35922)
Method: RNA Bind-n-Seq
Molecule type: RNA
Matrix: in vitro
Tested at: 200 nM
Setting: whole 134-nt RNA, ends assumed
Together with: 150 mM KCl
Relative to: input library
Direction: higher = stronger binding
All sequences stand within: GGGAGUUCUACAGUCCGACGAUC … UGGAAUUCUCGGGUGUCAAGG
| Oligonucleotide | log2 enrichment |
| --- | --- |
| UGGUAAGAAAUCUGCUUGUUUUAUUAAAAUGCUUAAUUGAAGAAAAUAAUAUUCUUCUGUGAUUAAAAUUAGGAAGAAAUAGAACCAUUU | -1.25 |
| CCUCAAGUCCUGUGCUACACAUCGUAUGUACCGAAUCGGGAGGGUGGGUGGGAAAGUAUUAUGUUACGCCGUUCGGAUCUGCACUUCCAG | 1.59 |
| AAGUCCUGUGCUACACAUCGUAUGUACCGAAUCGGGAAAAGGAAAAGGAAAAGGGGAAAGUAUUAUGUUACGCCGUUCGGAUCUGCACUU | -0.342 |
| UUAUCUGUGGACUUCACCCAAAAGGAGUGGCAGCUACUGGAUCCCUCUCAGAAGAAUUUAUACAAGGAUGUGAUGUUGGAGAACUAUAGC | -0.599 |
| UCCUGUGCUACACAUCGUAUGUACCGAAUCGGGGUUUUUGGGGAAAGGGGUUUUUGGGGAAAGUAUUAUGUUACGCCGUUCGGAUCUGCA | 0.82 |
| AGUCCUGUGCUACACAUCGUAUGUACCGAAUCGGGGAGGGGAAAAAGGGGUUUGGGGAAAGUAUUAUGUUACGCCGUUCGGAUCUGCACU | 0.657 |
| AGUCCUGUGCUACACAUCGUAUGUACCGAAUCGGGCCCCCGGCCCCCGGGGCCCCCGGAAAGUAUUAUGUUACGCCGUUCGGAUCUGCAC | -0.603 |
| CACAGACAACACGCACCCACACAGACACAGAGGGAAGGGGUUGGGAUGGGGACAGGGUUCACAGCAGGGCGGGGUAGGACCCCAGCCCCU | 1.15 |
| CACAGACAACACGCACCCACACAGACACAGAGGGACGGGGUUGGGAUGGGGACAGGGUGCACAGCAGGGCGGGGUAGGACCCCAGCCCCU | 1.47 |
| CAAGUCCUGUGCUACACAUCGUAUGUACCGAAUCGGUUUGGUUUUUGGAAAAAGGAAAGUAUUAUGUUACGCCGUUCGGAUCUGCACUUC | -0.528 |
| UCCUGUGCUACACAUCGUAUGUACCGAAUCGGGUUUUUUUGGGAAAAAGGGUUUUUGGGAAAGUAUUAUGUUACGCCGUUCGGAUCUGCA | -0.183 |
| UCAAGUCCUGUGCUACACAUCGUAUGUACCGAAUCGGAAAAAGGUUUUUGGAGGAAAGUAUUAUGUUACGCCGUUCGGAUCUGCACUUCC | -0.625 |
| ACCAUGCUGGUGGGCAUCUUUGGGAAGUGGGGCAAGGGGGGGAUAGGGAGGGGGGUAACACUUUGGGAACAGGUGGUCCCAGGUCGUUUC | 0.763 |
| CCUGUGCUACACAUCGUAUGUACCGAAUCGGUUUUUUUGGUUUUUUUGGGGUUUUUUUGGGAAAGUAUUAUGUUACGCCGUUCGGAUCUG | -0.894 |

For quick reference, copied from above (block 4):
| Oligonucleotide | log2 enrichment |
| --- | --- |
| UGGUAAGAAAUCUGCUUGUUUUAUUAAAAUGCUUAAUUGAAGAAAAUAAUAUUCUUCUGUGAUUAAAAUUAGGAAGAAAUAGAACCAUUU | -1.25 |
| CCUGUGCUACACAUCGUAUGUACCGAAUCGGUUUUUUUGGUUUUUUUGGGGUUUUUUUGGGAAAGUAUUAUGUUACGCCGUUCGGAUCUG | -0.894 |
| CAAGUCCUGUGCUACACAUCGUAUGUACCGAAUCGGUUUGGUUUUUGGAAAAAGGAAAGUAUUAUGUUACGCCGUUCGGAUCUGCACUUC | -0.528 |
| AGUCCUGUGCUACACAUCGUAUGUACCGAAUCGGGGAGGGGAAAAAGGGGUUUGGGGAAAGUAUUAUGUUACGCCGUUCGGAUCUGCACU | 0.657 |
| UUAUCUGUGGACUUCACCCAAAAGGAGUGGCAGCUACUGGAUCCCUCUCAGAAGAAUUUAUACAAGGAUGUGAUGUUGGAGAACUAUAGC | -0.599 |
| UCAAGUCCUGUGCUACACAUCGUAUGUACCGAAUCGGAAAAAGGUUUUUGGAGGAAAGUAUUAUGUUACGCCGUUCGGAUCUGCACUUCC | -0.625 |
